# Measured values collected from several papers.
# A part holds a random share of what one study measured. Substitutions count along the parent as printed.

# Sample 1
# Target: Ras GTPase-activating protein-binding protein 1, RRM domain (G3BP1, Homo sapiens, UniProt Q13283)
# Chain of UniProt Q13283 (whole entry, looked up): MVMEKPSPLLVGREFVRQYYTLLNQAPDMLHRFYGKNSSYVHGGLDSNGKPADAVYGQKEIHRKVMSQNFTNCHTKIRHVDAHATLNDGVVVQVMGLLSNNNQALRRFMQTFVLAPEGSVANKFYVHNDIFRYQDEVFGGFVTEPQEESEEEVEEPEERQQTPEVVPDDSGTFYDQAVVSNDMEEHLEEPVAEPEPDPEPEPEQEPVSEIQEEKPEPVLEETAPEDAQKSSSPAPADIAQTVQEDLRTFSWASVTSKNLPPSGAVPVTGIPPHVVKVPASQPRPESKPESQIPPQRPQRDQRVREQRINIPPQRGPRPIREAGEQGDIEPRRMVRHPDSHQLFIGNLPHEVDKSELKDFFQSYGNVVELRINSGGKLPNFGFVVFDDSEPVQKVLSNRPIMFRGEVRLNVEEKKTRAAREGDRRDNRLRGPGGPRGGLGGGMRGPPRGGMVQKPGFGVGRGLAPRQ
# Technique: RNA Bind-n-Seq
# Form: RNA
# Matrix: in vitro
# Concentration: 1 µM
# Notes: whole 134-nt RNA, ends assumed
# With: 150 mM KCl
# Reference: input library
# Direction: higher = stronger binding
# Constant ends, left off below: GGGAGUUCUACAGUCCGACGAUC … UGGAAUUCUCGGGUGUCAAGG
Strand,log2 enrichment
UAACUUUAGAGGAGGAUCUGAUGGAUAUGGCAGUGGACGUGGAUUUGGGGCUGGCUAUAAUGGGUAUGGAGGAGGACCUGGAGGUGGCAA,-0.589
AAGUCCUGUGCUACACAUCGUAUGUACCGAAUCGGGCCCGGGGCCCGGGGCCCGGGGAAAGUAUUAUGUUACGCCGUUCGGAUCUGCACU,-1.11
UGGGAGGUGGAUUUUGUUUAUUUUUUUAGCUCAUUUCCAGGGGUGGGAAUUUUUUUUUAAUAUGUGUUAUGAAUAAAGUUGUUUUUGAAA,1.69
CUCAAGUCCUGUGCUACACAUCGUAUGUACCGAAUCGGUUUUUGGAAAGGUGGAAAGUAUUAUGUUACGCCGUUCGGAUCUGCACUUCCA,-0.212
GUCCUGUGCUACACAUCGUAUGUACCGAAUCGGGUUUUUUUGGGAAAGGGAAAAAGGGAAAGUAUUAUGUUACGCCGUUCGGAUCUGCAC,-0.091
CCUCAAGUCCUGUGCUACACAUCGUAUGUACCGAAUCGGGAGGAGGGGAGGGAAAGUAUUAUGUUACGCCGUUCGGAUCUGCACUUCCAG,0.455
UAACUUUAGAGGAGGAUCUGAUGGAUAUGGCAGUGGACGUGGAAUUGGGGAUGGCUAUAAUGGGUAUGGAGGAGGACCUGGAGGUGGCAA,-0.759
CACAGACAACACGCACCCACACAGACACAGAGGGAAGGGGUUGGGAUGGGGACAGGGUGCACAGCAGGGCGGGGUAGGACCCCAGCCUCU,-0.323
CCUGUGCUACACAUCGUAUGUACCGAAUCGGGUUUUUUGGGGUUUUUUGGGGUUUUUUGGGAAAGUAUUAUGUUACGCCGUUCGGAUCUG,-0.143

# Sample 2
# Target: ABI1, truncated, D143A, DHFR fusion (Arabidopsis thaliana)
# Technique: DHFR PCA, deep sequencing
# Matrix: yeast
# Notes: methotrexate growth selection, single substitutions
# With: (+)-ABA 2500 µM
# Reference: wild-type fitted maximum
# Direction: higher = stronger binding
# Starting sequence: PYL1, truncated, DHFR fusion (Arabidopsis thaliana); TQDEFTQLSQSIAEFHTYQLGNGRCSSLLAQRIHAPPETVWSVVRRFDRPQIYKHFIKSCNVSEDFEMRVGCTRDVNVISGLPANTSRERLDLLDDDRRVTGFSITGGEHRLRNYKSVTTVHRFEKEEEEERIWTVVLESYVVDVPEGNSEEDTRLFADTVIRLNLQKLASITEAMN
Change,relative binding score [%]
I172H,95.1
I79C,103
P37T,85.7
I79G,88.6
H55P,97
R45W,2.01
F66Y,95.5
H34N,100
P146K,45.2
H110F,21.6
Q19P,95.5
E129V,107
S63V,97.4
V76T,88.9
K54Q,-6.37
H55C,98.8

# Sample 3
# Target: CCNB1, cyclin fold, Cln2 fusion (human)
# Technique: yeast growth competition, sequencing
# Matrix: yeast
# Notes: weak parent motif
# Reference: not given
# Direction: higher = stronger binding
# Starting sequence: BORA docking peptide (human); SSLRRKLFLDGNG
Change,normalised enrichment score
SSLRKKLFFDGNG [R5K L9F],0.623
SSLRRKLLLDGNG [F8L],0.5
SSLRRKLFLAGNG [D10A],0.327
SSLRRKLFLDGNA [G13A],0.385
SALRRKLFLDGNG [S2A],0.843
SSLRAKLFLDGNG [R5A],0.153
SSARRKLFLDGNG [L3A],-0.0676
SSLRRKLFLDANG [G11A],0.467

# Sample 4
# Target: BATF3, bZIP domain (human)
# Technique: DHFR protein complementation
# Matrix: yeast
# Notes: single substitutions, most at no-binding floor
# Reference: wild-type JUN-FOS pair
# Direction: higher = stronger binding
# Starting sequence: JUN, bZIP domain (human); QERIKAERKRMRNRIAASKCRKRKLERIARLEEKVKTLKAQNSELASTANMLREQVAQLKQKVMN; partner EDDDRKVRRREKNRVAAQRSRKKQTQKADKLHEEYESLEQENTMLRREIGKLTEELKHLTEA
Change,binding fitness
L59V,0.433 natural log
K36H,0.201 natural log
Q58P,-0.0799 natural log
T48N,0.101 natural log
A29K,0.0886 natural log
L38P,-1.12 natural log
L59A,0.278 natural log
R30W,0.233 natural log
N42S,-0.191 natural log
A57V,0.294 natural log
L59S,0.045 natural log
T48K,0.21 natural log
A40C,0.163 natural log

# Sample 5
# Target: Interferon regulatory factor 5, full length, phosphomimetic (IRF5, Homo sapiens, UniProt Q13568-2, residues 1-514, S451D/S453D/S456D/S462D)
# Technique: protein-binding microarray
# Form: double-stranded DNA, one strand shown
# Matrix: in vitro
# Concentration: 940 nM top
# Notes: 60-bp whole probe
# With: salmon DNA 0.4 mg/ml
# Reference: random background probes
# Direction: higher = stronger binding
# Constant ends, left off below: GCCTAGCAC … GTCTTGATTCGCTTGACGCTGCTG
Strand,fitted relative affinity
GACGGTACCGGGACTGGGGACGTGCTA,-0.0607 z-score
TTAGATTTCAGGCTGGATTAGTGCTAG,-0.256 z-score
GACGGTTTCGGTTCCGGGACGTGCTAG,13.3 z-score
TTAGGACTGGCGTATCGGTTAGTGCTA,0.478 z-score
TCCAGGGCGGTGGGTGGCCCGTGCTAG,-0.603 z-score
GACGCTCTCAGACTGGAGACGTGCTAG,0.0935 z-score
TTAGGTATACTTATCCTTTAGTGCTAG,-0.281 z-score
TTAGGAATCCTTCTCCTTTAGTGCTAG,-0.323 z-score
TCATAAGCAAAAATGATACTGTGCTAG,0.173 z-score
TTAGATAACAGACTGGATTAGTGCTAG,-0.399 z-score
GACAGACTGCTTTTCCTGACGTGCTAG,0.0391 z-score
TTTTTTTTTTTTTTTTACTTGTGCTAG,1.02 z-score
TTAGGTATCGGGTATCGGATAGTGCTA,6.63 z-score
GACGGACTGCTTTTCCTGGCGTGCTAG,-0.292 z-score
TCACGGGCTTCTTTTTCTACTGTGCTA,0.955 z-score
TTAGGTTTCGGACTGGGATAGTGCTAG,7.43 z-score
TCATGTATATCTTCAGCACTGTGCTAG,0.321 z-score
TTAGATCTCAGTCTCGAATAGTGCTAG,1.14 z-score
GTCATTTTCTCTTATTCTAAGTGCTAG,2.61 z-score

# Repeated from above (sample 4):
Change,binding fitness
Q58P,-0.0799 natural log
T48N,0.101 natural log
A29K,0.0886 natural log
L38P,-1.12 natural log
L59A,0.278 natural log
R30W,0.233 natural log
N42S,-0.191 natural log
A57V,0.294 natural log
L59S,0.045 natural log
T48K,0.21 natural log
